Measured values gathered from unrelated publications.
Each line is one published result; not all experiments were run side by side. Numbers after ± are the reported error.

| test | test system | setting | AUC | SMILES |
| --- | --- | --- | --- | --- |
|  | Sprague-Dawley rat, male and female, plasma | oral, 100 mg/kg of parent drug | 498000 ng·h/mL | COc1cccc(-c2n[nH]c([S+]([O-])Cc3ccccn3)n2)c1OC (stereo not drawn) |
|  | Sprague Dawley rats, plasma | subcutaneous, 0.1 mg/kg | 1.34 ng·h/mL | NCC(=O)NCC(=O)NCC(=O)NCC(=O)NCC(=O)NCC(=O)NCCCC[C@H](NC(=O)[C@@H]1CCCN1C(=O)[C@@H]1CSSCCC(=O)N[C@@H](Cc2ccc(O)cc2)C(=O)N[C@@H](Cc2ccccc2)C(=O)N[C@@H](CCCC(N)=O)C(=O)N[C@@H](CC(N)=O)C(=O)N1)C(=O)NCC(N)=O |
|  | male Sprague-Dawley rat | oral, 25 mg/kg | 1560 ± 19 ng·h/mL | N[C@@H](COc1ccccc1C(F)(F)F)c1ccccc1 |
| refers to: intact compound | rat, Sprague-Dawley, male, plasma | oral, 160 mg/kg as peramivir | 20000 ng·h/mL | CCC(CC)[C@H](NC(C)=O)[C@@H]1[C@H](O)[C@@H](C(=O)N[C@H](C(=O)O)[C@@H](C)CC)C[C@H]1NC(=N)N |
| ELISA | hairless Sprague-Dawley rat, male, serum | intranasal, 3 µg | 0.307 ± 0.242 ng·h/mL | CC(C)C[C@H](NC(=O)[C@H](CCCCN)NC(=O)CNC(=O)[C@H](CC(C)C)NC(=O)[C@@H](NC(=O)[C@@H]1CSSC[C@H](N)C(=O)N[C@@H](CO)C(=O)N[C@@H](CC(N)=O)C(=O)N[C@@H](CC(C)C)C(=O)N[C@@H](CO)C(=O)N[C@@H]([C@@H](C)O)C(=O)N1)C(C)C)C(=O)N[C@@H](CO)C(=O)N[C@@H](CCC(N)=O)C(=O)N[C@@H](CCC(=O)O)C(=O)N[C@@H](CC(C)C)C(=O)N[C@@H](Cc1c[nH]cn1)C(=O)N[C@@H](CCCCN)C(=O)N[C@@H](CC(C)C)C(=O)N[C@@H](CCC(N)=O)C(=O)N[C@H](C(=O)N[C@@H](Cc1ccc(O)cc1)C(=O)N1CCC[C@H]1C(=O)N[C@@H](CCCNC(=N)N)C(=O)N[C@H](C(=O)N[C@@H](CC(N)=O)C(=O)N[C@H](C(=O)NCC(=O)N[C@@H](CO)C(=O)NCC(=O)N[C@H](C(=O)N1CCC[C@H]1C(N)=O)[C@@H](C)O)[C@@H](C)O)[C@@H](C)O)[C@@H](C)O |
|  | rat | dose not given | 0.8 µM·h | O=C(O)/C=C/c1ccc(NC(=O)C2(NC(=O)c3ccc4c(C5CCCCC5)c5n(c4c3)CCOc3ccccc3-5)CCCC2)cc1 |
|  | male Sprague-Dawley rats | oral, 45 mg/kg daily, day 14 | 13200 ± 4760 ng·h/mL | Cc1ncc2c(n1)CN(C(=O)Nc1nc(-c3cccs3)ccc1N)C2 |
|  | female Wistar rat collagen-induced arthritis, plasma | oral, 0.6 mg/kg once daily | 1960 ± 122 ng·h/mL | CC(=O)c1cnc(N)nc1N1CC[C@H]1c1nn2ccc(Cl)c2c(=O)n1-c1ccccc1 |
|  | rat | dose not given | 0.7 µM·h | O=C(O)/C=C/c1ccc(NC(=O)C2(NC(=O)c3ccc4c(C5CCCCC5)c5n(c4c3)CC(=O)Nc3ccccc3-5)CCCC2)cc1 |

Some of these lines once more:
| test | test system | setting | AUC | SMILES |
| --- | --- | --- | --- | --- |
|  | rat | dose not given | 0.7 µM·h | O=C(O)/C=C/c1ccc(NC(=O)C2(NC(=O)c3ccc4c(C5CCCCC5)c5n(c4c3)CC(=O)Nc3ccccc3-5)CCCC2)cc1 |
